Literature values that unrelated publications cite.
Protocols differ between the studies behind these lines. Numbers after ± are the reported error. Values after ≈ are worked out from the molar mass of the structure shown.

SMILES | tested on | assay | test system | setting | how to read | measurement | value
O=C(Nc1ccccc1-c1cccc(Cl)c1)c1nccnc1C(F)(F)F | Blumeria graminis | – | barley | – | – | EC80 | 2 to 10 mg a.i./L
C[C@@H](Nc1c(-c2c(F)cc(C#CCCN(C)C)cc2F)c(Cl)nc2ncnn12)C(C)(C)C | HEK293 | – | – | 1 µM, 4 h, unit not given | reference: vehicle (DMSO) | total α-tubulin level | 0.94 ± 0.01
O=C(Nc1ccccc1-c1ccc(F)cc1F)c1nccnc1C(F)(F)F | Blumeria graminis | – | barley | – | – | EC80 | 0.5 to 2 mg a.i./L
CC1=CCC23OC2(C)CCC2C(CN(C)C)C(=O)OC2C13.Cl (centres unmarked) | – | – | Ehrlich solid tumour model | ip and intratumoural, dose not given | – | tumour growth inhibition | 86 to 90%
C[C@@](CCn1ccc(-c2ccccc2)cc1=O)(C(=O)NO)S(C)(=O)=O | Acinetobacter baumannii | – | – | 31 clinical isolates | – | MIC90 | 32 µg/mL (≈ 87.8 µM)
O=C(Nc1ccccc1-c1cccc(F)c1)c1nccnc1C(F)(F)F | Puccinia triticina | – | wheat | – | – | EC80 | 2 to 10 mg a.i./L
CC(=O)NCCCOc1cc(F)c(-c2c(Cl)nc3ncnn3c2N[C@@H](C)C(F)(F)F)c(F)c1 | HEK293 | – | – | 10 µM, 4 h, unit not given | reference: vehicle (DMSO) | acetylated α-tubulin level | 0.99 ± 0.4
Oc1cccc(-c2cccc(O)n2)n1.[Cl-].[Cl-].[Ru+2].c1cnc2c(c1)c1c(c3cccnc32)OCCO1.c1cnc2c(c1)c1c(c3cccnc32)OCCO1 | MDA-MB-231 | cell viability | – | dark | – | IC50 | 190 µM
CC(C)C(=O)Nc1c(NC[C@H](O)[C@H](O)[C@H](O)CO)[nH]c(=O)[nH]c1=O | Bacillus subtilis lumazine synthase | – | recombinant β60 capsid | pH 7.0, Tris·HCl buffer, with: 2 constant, 1 varied | – | Ks | 3.6 ± 0.3 µM
CN(C)CCCOc1cc(F)c(-c2c(Cl)nc3ncnn3c2NCC2CCC2)c(F)c1 | HEK293 | – | – | 1 µM, 4 h, unit not given | reference: vehicle (DMSO) | total α-tubulin level | 0.8 ± 0.03
C=CC(OS(=O)(=O)O)c1ccc(OC)cc1 (centres unmarked) | – | – | male rat, liver | sulfonation | – | catalytic efficiency | 3 mL/h/g liver
O=C1c2ccccc2-c2c1c1ccccc1c(=O)n2C[C@@H](O)[C@@H](O)[C@H](O)CO | 60 cancer cell lines | cell growth | – | 10 µM | – | mean growth | 50.6%
CC#N.Cc1ccc(O)c(CN(CCN(Cc2ccccn2)Cc2ccccn2)Cc2ccccn2)c1.[Mn+2] | – | – | – | pH 7.4, 298 K | – | water exchange rate constant | 1.3e+08 s⁻¹
CNCCCOc1cc(F)c(-c2c(Cl)nc3ncnn3c2N[C@@H](C)C(F)(F)F)c(F)c1 | HEK293 | – | – | 10 µM, 4 h, unit not given | reference: vehicle (DMSO) | total α-tubulin level | 0.27 ± 0.01
CNC(=O)c1ccccc1Oc1nc(Nc2cc(OC)c(OC)c(OC)c2)ncc1Br | ULK1 | – | – | 1 µM | – | inhibition | 63%
CC1CC(C)(C)c2cccc(NC(=O)c3cccnc3Cl)c21 (centres unmarked) | Puccinia triticina | – | wheat | – | – | EC80 | 1 to 10 mg a.i./L
CN(C)CCCOc1cc(F)c(-c2c(Cl)nc3ncnn3c2NCC(C)(C)C)c(F)c1 | HEK293 | – | – | 10 µM, 4 h, unit not given | reference: vehicle (DMSO) | acetylated α-tubulin level | 0.52 ± 0.07
C/C=C/CNC(=N)NCCCCCCCCN1CCCCCCCCNC(=N)NC1=O | Candida parapsilosis | – | – | – | – | MIC50 | 5 µg/mL (≈ 11.5 µM)
CNCCCOc1cc(F)c(-c2c(Cl)nc3ncnn3c2NCC(F)(F)F)c(F)c1 | HEK293 | – | – | 1 µM, 4 h, unit not given | reference: vehicle (DMSO) | acetylated α-tubulin level | 4.56 ± 0.8
O=C(Nc1ccccc1-c1ccc(Cl)c(Cl)c1)c1nccnc1C(F)(F)F | Puccinia triticina | – | wheat | – | – | EC80 | 0.5 to 2 mg a.i./L
Cc1ccc(Nc2nc3ccccc3c3[nH]nc(N)c23)cc1 | intestinal beta-glucuronidase | – | BALB/cJ mouse | oral, dose not given, 5 consecutive days | – | inhibition | 40%
O=C(Nc1ccccc1-c1ccc(Cl)cc1)c1nccnc1C(F)(F)F | Puccinia triticina | – | wheat | – | – | EC80 | 2 to 10 mg a.i./L
CN(C)CCCOc1cc(F)c(-c2c(Cl)nc3ncnn3c2NCC2(C)CC2)c(F)c1 | HEK293 | – | – | 10 µM, 4 h, unit not given | reference: vehicle (DMSO) | total α-tubulin level | 1.1 ± 0.2

Repeated from above:
SMILES | tested on | assay | test system | setting | how to read | measurement | value
CNCCCOc1cc(F)c(-c2c(Cl)nc3ncnn3c2NCC(F)(F)F)c(F)c1 | HEK293 | – | – | 1 µM, 4 h, unit not given | reference: vehicle (DMSO) | acetylated α-tubulin level | 4.56 ± 0.8
